Measured values pooled from the literature.
Lines come from different studies, so protocols differ.

SMILES = CCNC(=O)Nc1ccc(S(=O)(=O)Oc2cnccc2I)cc1; cell line = MOLM-13; test = cell growth or viability, MTT; conditions = 48 h; IC50 = 1.1 µM
SMILES = O=C1C(n2nc(-c3c(O)c4ccccc4oc3=O)cc2-c2ccc(F)cc2)c2cc(Br)ccc2N1Cc1ccccc1 (centres unmarked); cell line = A-375; test = cell growth or viability, SRB; conditions = 72 h; IC50 = 1.28 µM
SMILES = COCC(=O)N1CCc2[nH]c3c(Cl)c(Cl)ccc3c2[C@@H]1C; cell line = THP1-Dual; test = ISG luciferase reporter, inhibitor; conditions = added: dsDNA transfection; IC50 = ~3 µM
SMILES = COc1cc(OC)c(Cl)c(NC(=O)N(C)c2cc(Nc3ccc(N4CCN(CC(=O)N[C@H](C(=O)N5C[C@H](O)C[C@H]5C(=O)N[C@@H](C)c5ccc(-c6scnc6C)cc5)C(C)(C)C)CC4)cc3)ncn2)c1Cl; cell line = SNU1079 (no FGFR activation); test = cell proliferation, CellTiter-Glo; conditions = 3 d; IC50 = > 10 µM
SMILES = CCN1C(=O)C(n2nc(-c3c(O)c4ccccc4oc3=O)cc2-c2ccc(F)cc2)c2cc(Cl)ccc21 (centres unmarked); cell line = A-375; test = cell growth or viability, SRB; conditions = 72 h; IC50 = 82.6 µM
SMILES = CN1CCN(c2nc3ccccc3nc2/C=C/c2ccccc2F)CC1; cell line = HeLa 229; test = cell growth or viability, MTT; conditions = 72 h; IC50 = 12.4 µM
SMILES = Cc1ccc(C#Cc2cccc(-c3nn(-c4nc(C(=O)O)cs4)c(C4CC4C4CC4)c3Cc3ccc(S(N)(=O)=O)c(F)c3)c2)s1 (centres unmarked); cell line = MIA PaCa-2; test = cell growth or viability; conditions = 48 h; IC50 = 5.26 µM
SMILES = CC1(C)C=Cc2c(O)cc(/C=C/c3ccc(O)cc3)cc2O1; cell line = HL-60; test = reactive oxygen species, inhibitor, fluorescence; IC50 = 1.3 µg/mL
SMILES = CCCCNc1ccc(C(=O)O)c(OC)c1; cell line = ventricular myocytes R176Q mouse; test = Ca2+ spark frequency; conditions = 2 h, added: isoproterenol 100 nM; IC50 = 0.2 µM
SMILES = CC(=O)OC[C@H]1O[C@@H]([S-])[C@H](OC(C)=O)[C@@H](OC(C)=O)[C@@H]1OC(C)=O.CCP(CC)CC.[Au+]; cell line = GIST882; test = cell growth or viability, resazurin; conditions = 72 h; IC50 = 0.38 µM
SMILES = Nn1c(SCC(=O)Nc2cccc(Br)c2)nnc1-c1ccc(NC(=O)c2cccnc2)cc1; cell line = RAW264.7; test = NO release, inhibitor, Griess; conditions = LPS-stimulated; IC50 = 92.5 µM
SMILES = Oc1ccc(/C=C/c2cc(O)cc(O)c2)cc1; cell line = HL-60; test = reactive oxygen species, inhibitor, fluorescence; IC50 = 0.28 µg/mL
SMILES = O=C(O)c1cc(Oc2ccc([N+](=O)[O-])cc2)cc(Oc2ccc([N+](=O)[O-])cc2)c1; cell line = H4 neuroglioma cells expressing APP K595N/M596L; test = Aβ42 secretion, inhibitor, MSD immunoassay, measured: Aβ42; conditions = 24 h, 50% reduction level; IC50 = 50 to 100 µM
SMILES = Nn1c(SCC(=O)Nc2ccc([N+](=O)[O-])cc2)nnc1-c1ccc(NC(=O)c2cccnc2)cc1; cell line = RAW264.7; test = NO release, inhibitor, Griess; conditions = LPS-stimulated; IC50 = 1.92 µM
SMILES = CC1(C)CCCC(C)(C2CCC3(C)C2C(O)CC2C4(C)CCC(OC(=O)Nc5ccccc5)C(C)(C)C4C(O)CC23C)O1 (centres unmarked); cell line = Hep3B; test = HRE reporter gene, inhibitor; conditions = 24 h, hypoxia; IC50 = 1.58 µM
SMILES = Cc1ccc(C=Nn2c(-c3ccc(NC(=O)c4cccnc4)cc3)n[nH]c2=S)cc1; cell line = RAW264.7; test = IL-6 release, inhibitor, ELISA; conditions = LPS-stimulated; IC50 = 0.96 µM
SMILES = CC(C)C[C@H]1NC(=O)[C@H](CC(=O)O)NC(=O)CNC(=O)[C@H](CCCNC(=N)N)NC(=O)[C@H](C)NC1=O; cell line = WM-115; test = WM-115 cell adhesion, inhibitor; conditions = 1 h, added: immobilized CagL^F86A; IC50 = 2.39 µM
SMILES = CC1(C)[C@@H](O[C@H]2O[C@H](C(=O)O)[C@@H](O)[C@H](O)[C@H]2O[C@@H]2O[C@H](C(=O)O)[C@@H](O)[C@H](O)[C@H]2O)CC[C@]2(C)[C@H]3C(=O)C=C4[C@@H]5C[C@@](C)(C(=O)O)CC[C@]5(C)CC[C@@]4(C)[C@]3(C)CC[C@@H]12; cell line = HFL1; test = IL-8 production, ELISA; conditions = 24 h, added: TNF-α; IC50 = 330 µg/mL
SMILES = O=c1c(/C=C/c2ccccc2F)nc2ccccc2n1Cc1ccccc1; cell line = HeLa 229; test = cell growth or viability, MTT; conditions = 72 h; IC50 = > 50 µM
SMILES = O=c1[nH]nc(-c2nnc(S)o2)c2ccccc12; cell line = WI-38; test = cell growth or viability, MTT; conditions = 48 h; IC50 = 74.9 µM
SMILES = CCCN1CC(Oc2ccc([C@@H]3c4[nH]c5ccccc5c4C[C@@H](C)N3CC(C)(C)F)cc2)C1; cell line = CAMA-1; test = cell growth or viability; conditions = 7 days; IC50 = 0.02 µM
SMILES = CCCCCCCCCCCCCCCC(=O)OC[C@H](COP(=O)([O-])OCC[N+](C)(C)C)OC(=O)Cc1c(C)n(C(=O)c2ccc(Cl)cc2)c2ccc(OC)cc12; cell line = MCF-10A; test = cell growth or viability, SRB; conditions = 72 h; IC50 = 309 µM
SMILES = O=C1C(=Cc2ccccc2)CN(C(=O)C#CC(=O)N2CC(=Cc3ccccc3)C(=O)C(=Cc3ccccc3)C2)CC1=Cc1ccccc1; cell line = Molt4/C8; test = cell growth or viability; IC50 = 1.5 µM

For quick reference, copied from above:
SMILES = CN1CCN(c2nc3ccccc3nc2/C=C/c2ccccc2F)CC1; cell line = HeLa 229; test = cell growth or viability, MTT; conditions = 72 h; IC50 = 12.4 µM
SMILES = Nn1c(SCC(=O)Nc2cccc(Br)c2)nnc1-c1ccc(NC(=O)c2cccnc2)cc1; cell line = RAW264.7; test = NO release, inhibitor, Griess; conditions = LPS-stimulated; IC50 = 92.5 µM
